Published values of several laboratories.
Parts stem from different laboratories: compare values within a part only. Changes are numbered by the printed parent chain.

Block 1
Target: Histone acetyltransferase KAT6A, winged helix 1, GST fusion (KAT6A, Homo sapiens, UniProt Q92794, residues 1-85)
Method: protein binding microarray
Molecule type: double-stranded DNA, one strand shown
Medium: in vitro
Tested at: not given
Setting: 8-mer, flanks averaged, mean of 2 arrays, mostly near background
Relative to: not given
Direction: higher = stronger binding
Measurement: E-score
Residues (chain): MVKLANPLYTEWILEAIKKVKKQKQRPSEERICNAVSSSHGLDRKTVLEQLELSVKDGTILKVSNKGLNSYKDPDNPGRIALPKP
AAATATTA: -0.0301
GAAGTGGC: -0.2
CATTCATC: -0.21
AGATCTCG: -0.0326
TATCGCAA: -0.103
CGTGGTCA: -0.185
ACGGGCCG: 0.33
GGTCACAA: -0.0661
CGGTCCAA: 0.0816
TAGGCATA: -0.146
ACACGACC: -0.0195
ACCTTAAA: -0.0446
ACTACTCG: 0.0147
AACGGAAG: 0.159
CCCAGGAC: -0.0435
ATCAGCGC: 0.263
CCCTTCAA: -0.15
CGTCCTAG: 0.0283
TCACATCA: -0.281
GTTTCGCA: -0.0741
ATCCAGTA: -0.16
TATCGTGA: -0.104
TGAGATCA: -0.0663
AGGGGACT: -0.271
CCCATTGA: 0.0364

Block 2
Target: RNA binding protein fox-1 homolog 2, RRM domain, GST-SBP tag (RBFOX2, Homo sapiens, UniProt O43251-10, residues 100-194)
Method: RNA Bind-n-Seq
Molecule type: RNA
Medium: in vitro
Tested at: 365 nM
Setting: natural RNA segment, single round, ends assumed
Relative to: no-protein control
Direction: higher = stronger binding
Measurement: RBNS enrichment (R)
Shared flanks, not repeated: GGGAGUUCUACAGUCCGACGAUC … UGGAAUUCUCGGGUGCCAA
Target sequence (chain): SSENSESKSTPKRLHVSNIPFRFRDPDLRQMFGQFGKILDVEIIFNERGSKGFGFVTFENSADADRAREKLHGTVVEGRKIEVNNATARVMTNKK
GGGCUUCUUCCUACCAAAGUGUCCCCUCACCAGUCUGCCUAGAGCAUCACUGGAACCCGCACUAAACAAGGACCUUUGGACCAGACAAGAAGUCUUCCCUCAACUACGUG: 0.382
UAGGGUUUUUUGUCCAGUGGGUUUCAAAUUUGUUGGCUGUUUAAAGACCCUGUCUCCUCCCCCACCCUCCCCUUCCUUUUCCCAUCAAAUGCCUACCUACUGAGGCGCCU: 0.765
GCCAGUCAUGGGAACAUGUCAAAGCCAACAGGAAGCAGAACCUGUAGCUUUCUCUGGCAUUAGGGAGAGAGAACCCUGCUUGCUUCCACUUAACUCCUGGUGGAAGAGGG: 1.81
GGUGUUGUGUAUGACUCUGUUGCCUUUUUGUCUGGAAACUAAAGGCUGGGGGUGGCAAAAUCAAUGACUUUUCUAACUAGGGAAGCCCUGUGGCCUCCAAAUUCACUGAC: 0.407
AACCAAAAUGAGCCCACCUUGUGUUCUUCCUAGCUCCACCCUCCCCGUGCUGCUGUGUUCUGCUCCUCCCCACGCUUCCCUGCUAUAGUUCCCAGCUGCUGUAACGGAGC: 0.533
GCAUGCACUUGCCCUUAAAAACAAUGAUUUGUGAGUCCAGGAACAAUUUACUAUUUUUAAAAUAUUUUGCUGCUUCUGUUCUGGGUCUGAAUUCCCUUUUGUGCCAGAUG: 9.35
UCACCCAGCACCCAGCUUAACCCUGCCACCCCACACUCCUGGGAGCACUGGGCUGAGGGGGUCUCAGCUGGUCUGGAGUCCAGACCUCGCCAUCCCCUGCCCACCAUUGC: 0.339
UACAUAAAUGCCUUGUGGCAGAGCUCCCGGUGAACUUCUGGAUCCCGUUUCUGAUGCAGACUCUUGUCUUGUUCUCCACUUGUGCUGUUAGAACUCACUGGCCCAGUGGU: 1.11
CCCGUCCCUGCCCCGCCACCUCCCCAAAGAAUUGAAACGUCAGCUCAGGAUAUGGGGCCAAUCUCUGUGAGUCCAGCAUGUACCUGUCUCUCCCUAGUGUCCCUUCAGCC: 6.64
GUCAGAAGAUCUAAAGCCUUCCUUCAUAUUCCAGUUCUGUGAGUCCCUAACAGCAGGCAGCAUCCAUGCUGAAGCACAUACACCUCCGCUCCUCACCAGUGGGUUUUCUU: 0.436
UGCAUAUAUUGUAAAAUAGGAUCAGAUGUAUAUUUUAAACUAAUUUCAAUGGAUUUUCCUCUUGAAAUGCUUUGUCUACUCAGUUAUAAAAUAUUCAGAUACAAGUUUUA: 0.546
CUGGAGAAGGUGGGCACUGGAUUAGUUAACAGACAACACGUUACUAGCAGUCACUUGAUCUCCGUGGCUUUGGUUUAAAAGACACACUUGUCCACAUAGGUUUAGAGAUA: 0.232

Block 3
Target: Interferon regulatory factor 7, full length, phosphomimetic (IRF7, Homo sapiens, UniProt Q92985, residues 1-503, S471D/S472D/S475D/S476D/S477D/S483D/S484D/S487D)
Sequence of UniProt Q92985 (whole entry, unmodified, looked up): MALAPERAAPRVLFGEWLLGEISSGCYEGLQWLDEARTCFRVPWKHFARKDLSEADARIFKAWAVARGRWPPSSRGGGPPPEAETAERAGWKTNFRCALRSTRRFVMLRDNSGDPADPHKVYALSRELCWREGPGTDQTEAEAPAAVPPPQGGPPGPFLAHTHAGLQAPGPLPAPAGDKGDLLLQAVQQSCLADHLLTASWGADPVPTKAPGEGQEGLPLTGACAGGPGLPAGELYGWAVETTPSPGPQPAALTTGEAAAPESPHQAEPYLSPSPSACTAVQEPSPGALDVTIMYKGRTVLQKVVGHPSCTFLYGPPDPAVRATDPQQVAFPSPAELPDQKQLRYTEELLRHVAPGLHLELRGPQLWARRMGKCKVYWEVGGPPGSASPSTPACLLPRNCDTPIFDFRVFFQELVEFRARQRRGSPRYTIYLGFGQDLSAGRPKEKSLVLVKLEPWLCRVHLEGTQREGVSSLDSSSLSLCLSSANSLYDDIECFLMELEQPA
Method: protein-binding microarray
Molecule type: double-stranded DNA, one strand shown
Medium: in vitro
Tested at: 2200 nM top
Setting: 60-bp whole probe
Added: salmon DNA 0.4 mg/ml
Relative to: random background probes
Direction: higher = stronger binding
Measurement: fitted relative affinity
Shared flanks, not repeated: GCCTAGCAC … GTCTTGATTCGCTTGACGCTGCTG
GACGGACGGCTTCTCCTGACGTGCTAG: -0.398 z-score
TCAGATTTTTAGTTAGAACTGTGCTAG: -0.104 z-score
TCATGTCCCTGTTTCTAACTGTGCTAG: 2.46 z-score
GACGGTTTCCTTATCCCGACGTGCTAG: 3.13 z-score
GACGGAGTGGACACTGGGGACGTGCTA: -0.726 z-score
TTAGGTCTCGGTCTCGGATAGTGCTAG: 0.286 z-score
TTAGATATCCGGTTTCGATTAGTGCTA: 4.57 z-score
GACGATCTCAGTCTCAAGACGTGCTAG: 0.124 z-score
GACGGTCTCCTTTGCCTGACGTGCTAG: 0.857 z-score
TCATTTTTGGAATGTCTTACTGTGCTA: 2.06 z-score
GGTGCTGTTTACATAGTTCTGTGCTAG: 0.786 z-score
TCATATATCATTTAATTACTGTGCTAG: 0.968 z-score
TTAGGTTTCGGACTTGGTTAGTGCTAG: 2.71 z-score
GACGGTCTCAGTATCGGGACGTGCTAG: -0.0439 z-score
GACGATCTCAGAATGGAGACGTGCTAG: -0.474 z-score
TTAGGACTGGGTCTCGGTAAGTGCTAG: -0.544 z-score
GACGAACTGAGTTTCAAGACGTGCTAG: 0.0124 z-score
TTAGGTATCGGTACCGGTTAGTGCTAG: 0.386 z-score
GACGGTTTCGACTAGCGGGACGTGCTA: 3.8 z-score
TCACTTCCATTTTCTGAAACTGTGCTA: 3.89 z-score
GACGATTTCAGTCTCGCGACGTGCTAG: 0.775 z-score
GACGGTTTCCTTTTCCTTACGTGCTAG: 6.56 z-score
TCACATCTCTGCTCCTTACTGTGCTAG: 2.43 z-score
TTAGGTATCCACACTGGGTTAGTGCTA: -0.0506 z-score
GACGGTCTCCGTTTCCTGACGTGCTAG: 1.61 z-score

Block 4
Target: CCND2, cyclin fold, Cln2 fusion (human)
Method: yeast growth competition, sequencing
Medium: yeast
Setting: strong parent motif
Relative to: not given
Direction: higher = stronger binding
Measurement: normalised enrichment score
Starting sequence: E2F1 docking peptide (human); PPVKRRLDFETDH; partner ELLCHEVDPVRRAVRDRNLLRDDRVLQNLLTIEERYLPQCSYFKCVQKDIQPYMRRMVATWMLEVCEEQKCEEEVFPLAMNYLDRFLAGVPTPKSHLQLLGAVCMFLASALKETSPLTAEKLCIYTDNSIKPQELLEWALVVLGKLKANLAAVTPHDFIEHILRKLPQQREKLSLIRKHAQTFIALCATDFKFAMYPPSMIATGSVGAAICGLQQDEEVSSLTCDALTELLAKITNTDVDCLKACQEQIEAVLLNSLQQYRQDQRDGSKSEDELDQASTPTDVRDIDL
PPVKPRLDFETDH [R5P]: 0.00132
PPVKRRLWFETDH [D8W]: 0.605
PPVKRRLDFETEH [D12E]: 2.03
PPVKRRLSFETDH [D8S]: 1.16
PPVKRRLDIETDH [F9I]: 0.291
PPVKRRLDFMTDH [E10M]: 1.32
PPVKRRLDFEHDH [T11H]: 2.08
PPVCRRLDFETDH [K4C]: 3.27
PPVLRRLDFETDH [K4L]: 0.374
PPVKRREDFETDH [L7E]: 0.116
PPVKGRLDFETDH [R5G]: 0.281
PNVKRRLDFETDH [P2N]: 1.51
PPVKRRLFFETDH [D8F]: 1.22
PHVKRRLDFETDH [P2H]: 1.13
PPVKRRLDYETDH [F9Y]: 0.186
PPVKRRLDFETVH [D12V]: 1.78
PPVKMRLDFETDH [R5M]: 0.371
